Experimental data pooled from the literature.
Every numbered part comes from another study and shows a few of its results, in no order. Changes are numbered by the printed parent chain.

Series 1 — method: DHFR PCA, deep sequencing; sample: yeast; together with: (+)-ABA 4.8 µM; relative to: wild-type fitted maximum; reading: higher = stronger binding; quantity: relative binding score
Target: ABI1, truncated, D143A, DHFR fusion (Arabidopsis thaliana)
Notes: methotrexate growth selection, single substitutions
Parent: PYL1, truncated, DHFR fusion (Arabidopsis thaliana); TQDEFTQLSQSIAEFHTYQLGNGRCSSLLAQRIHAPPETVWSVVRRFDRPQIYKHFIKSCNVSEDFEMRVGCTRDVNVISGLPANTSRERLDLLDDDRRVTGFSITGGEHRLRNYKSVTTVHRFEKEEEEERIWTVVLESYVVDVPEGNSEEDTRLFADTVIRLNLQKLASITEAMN; partner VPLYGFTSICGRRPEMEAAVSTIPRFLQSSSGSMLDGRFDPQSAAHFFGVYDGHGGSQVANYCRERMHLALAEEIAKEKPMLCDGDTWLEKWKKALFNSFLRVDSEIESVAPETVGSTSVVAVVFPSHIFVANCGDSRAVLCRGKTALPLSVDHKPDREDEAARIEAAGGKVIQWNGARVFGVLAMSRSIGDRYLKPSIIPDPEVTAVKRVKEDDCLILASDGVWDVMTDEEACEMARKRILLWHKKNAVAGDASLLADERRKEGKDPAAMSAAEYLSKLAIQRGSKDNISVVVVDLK
F66D: 46.6%
A35R: 8.06%
F157W: 11.9%
R155K: 80.5%
D95A: -2.6%
E128D: 82.7%
W41A: -11.2%
T106A: 10.5%
M68S: 24%
T86C: 69.3%
I12A: 5.61%

Series 2 — method: universal PBM; form: double-stranded DNA, one strand shown; sample: in vitro; concentration: 600 nM; reading: higher = stronger binding; quantity: E-score
Target: Sal-like protein 4, full length isoform A (SALL4, Homo sapiens, UniProt Q9UJQ4, residues 1-1053)
Sequence of UniProt Q9UJQ4 (whole entry, looked up): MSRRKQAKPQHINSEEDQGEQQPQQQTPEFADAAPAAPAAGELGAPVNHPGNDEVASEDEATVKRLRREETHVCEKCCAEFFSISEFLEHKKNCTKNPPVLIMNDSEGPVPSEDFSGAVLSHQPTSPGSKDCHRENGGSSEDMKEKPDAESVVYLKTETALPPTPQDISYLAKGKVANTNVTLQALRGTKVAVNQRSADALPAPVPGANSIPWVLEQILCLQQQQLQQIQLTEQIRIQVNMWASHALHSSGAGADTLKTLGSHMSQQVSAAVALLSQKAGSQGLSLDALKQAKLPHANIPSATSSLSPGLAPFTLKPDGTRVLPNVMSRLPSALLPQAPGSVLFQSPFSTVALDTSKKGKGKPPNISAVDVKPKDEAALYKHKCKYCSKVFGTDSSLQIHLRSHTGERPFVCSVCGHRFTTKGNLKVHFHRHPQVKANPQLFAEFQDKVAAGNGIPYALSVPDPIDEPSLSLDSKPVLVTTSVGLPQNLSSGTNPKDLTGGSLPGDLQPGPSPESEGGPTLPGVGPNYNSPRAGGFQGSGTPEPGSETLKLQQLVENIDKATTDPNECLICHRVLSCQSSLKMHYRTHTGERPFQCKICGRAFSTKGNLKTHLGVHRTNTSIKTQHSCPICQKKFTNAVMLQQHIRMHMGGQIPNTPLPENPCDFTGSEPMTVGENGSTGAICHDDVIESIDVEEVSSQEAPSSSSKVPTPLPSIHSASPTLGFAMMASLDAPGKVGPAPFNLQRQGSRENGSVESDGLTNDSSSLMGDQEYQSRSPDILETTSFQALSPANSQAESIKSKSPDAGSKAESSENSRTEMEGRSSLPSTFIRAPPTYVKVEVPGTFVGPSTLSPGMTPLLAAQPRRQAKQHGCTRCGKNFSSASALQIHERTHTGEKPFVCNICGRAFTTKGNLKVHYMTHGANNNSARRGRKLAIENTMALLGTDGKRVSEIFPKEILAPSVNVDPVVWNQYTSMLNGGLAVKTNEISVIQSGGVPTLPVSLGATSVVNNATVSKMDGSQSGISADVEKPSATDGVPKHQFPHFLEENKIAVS
Notes: 8-mer, flanks averaged, mean of replicates
CAGCTCGC: -0.151
CACTAGCC: -0.219
CTGACTCA: -0.0561
ACGGGATC: -0.0626
TGAAACCA: 0.0559
CCATGGAA: 0.000935
GGTCGGTA: -0.088
AAGGAGAG: -0.0739
AACTGTGG: -0.165
GTTTAGCA: -0.0245
ATGTGTGC: 0.0235
CCGCACGC: -0.237
GGGTGATA: 0.0759
AGCGCACA: -0.131
AACGATGA: 0.129
CAAAACGA: 0.169
AAGAAATG: 0.248
GACATAAA: 0.259
AGGTAGTG: -0.0644
TAGTAGCA: 0.0959
CGCTGCTA: -0.239

Series 3 — method: RNA Bind-n-Seq; form: RNA; sample: in vitro; concentration: 200 nM; notes: whole 134-nt RNA, ends assumed; together with: 150 mM LiCl; relative to: input library; reading: higher = stronger binding; quantity: log2 enrichment; all molecules: 7-deaza-guanosine replaces G
Target: Fragile X messenger ribonucleoprotein 1, C-terminal low-complexity region (Fmr1, Mus musculus, UniProt P35922)
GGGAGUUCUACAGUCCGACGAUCUGGGAGGUGGAUUUUGUUUAUUUUUUUAGCUCAUUUCCAGGGGUGGGAAUUAUUUUUUAAUAUGUGUCAUGAAUAAAGUUGUUUUUGAAAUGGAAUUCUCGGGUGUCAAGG: -0.105
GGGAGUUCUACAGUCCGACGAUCCCUGUGCUACACAUCGUAUGUACCGAAUCGGGGUUUUUUGGGGUUUUUUGGUUUUUUGGGGAAAGUAUUAUGUUACGCCGUUCGGAUCUGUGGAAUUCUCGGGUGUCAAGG: -0.422
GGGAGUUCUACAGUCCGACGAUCAAGUCCUGUGCUACACAUCGUAUGUACCGAAUCGGGGAAAGGGGAAAGGGGAAAGGGAAAGUAUUAUGUUACGCCGUUCGGAUCUGCACUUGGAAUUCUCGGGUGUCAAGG: 0.999
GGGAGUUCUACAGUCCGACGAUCUUCCAACAGUUAUGGGAUCCCAGAACCUGCUCAUGCAUACGCUCAACCUCAGACCACAACUCCUCUACCUGCAGUUUCCGGUUCUCCUGGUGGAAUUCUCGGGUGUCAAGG: 1.42
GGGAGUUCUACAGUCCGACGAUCUGGGAGGUGGAUUUUGUUUAUUUUUUUAGCUCAUUUCCAGGGGUGGGAAUUUUUGUUUAAUAUGUGUCAUGAAUAAAGUUGUUUUUGAAAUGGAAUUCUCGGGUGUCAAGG: -0.392
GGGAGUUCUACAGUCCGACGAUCCAAGUCCUGUGCUACACAUCGUAUGUACCGAAUCGGGGCCCGGCCCGGCCCGGGGAAAGUAUUAUGUUACGCCGUUCGGAUCUGCACUUCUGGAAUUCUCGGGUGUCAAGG: -1.07
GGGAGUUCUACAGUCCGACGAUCAGUCCUGUGCUACACAUCGUAUGUACCGAAUCGGGGUUUUGGGGUUUUGGGUUUUGGAAAGUAUUAUGUUACGCCGUUCGGAUCUGCACUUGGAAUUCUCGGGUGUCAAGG: -1.51
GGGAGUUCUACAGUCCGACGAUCACCAUGCAGGUGGGCAUCUUUGGGAAGUGGGGCAAGGGGGGGAUAGGGAGGGGGGUAACACUUUGAAAACAGGUGGUCCCAGGUCGUUUCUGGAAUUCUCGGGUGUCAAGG: 1.3
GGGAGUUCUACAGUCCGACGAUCAGUCCUGUGCUACACAUCGUAUGUACCGAAUCGGGGUUUUGGGGUUUUGGGUUUUGGGAAAGUAUUAUGUUACGCCGUUCGGAUCUGCACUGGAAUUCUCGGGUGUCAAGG: -1.17
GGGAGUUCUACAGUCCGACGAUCACCAUGCAGGUGGGCAUCUUUGGGAAGUGGGGCAAGGGGGGGAUAGGGAGGGGGGUAACACUUUGGGAACAGAUGGUCCCAGGUCGUUUCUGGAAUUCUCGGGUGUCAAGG: 1.47
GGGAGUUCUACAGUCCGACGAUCCAAGUCCUGUGCUACACAUCGUAUGUACCGAAUCGGAAAAAAAGGUUUUUGGUGGAAAGUAUUAUGUUACGCCGUUCGGAUCUGCACUUCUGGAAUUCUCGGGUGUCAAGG: -1.96

Series 4 — method: RNA Bind-n-Seq; form: RNA; sample: in vitro; concentration: not given; relative to: input RNA pool; reading: higher = stronger binding; quantity: bound/input enrichment
Target: RING finger protein unkempt homolog, zinc fingers 1-6, GST-SBP tag (UNK, Homo sapiens, UniProt Q9C0B0, residues 30-357)
Sequence of UniProt Q9C0B0 (30-357, looked up): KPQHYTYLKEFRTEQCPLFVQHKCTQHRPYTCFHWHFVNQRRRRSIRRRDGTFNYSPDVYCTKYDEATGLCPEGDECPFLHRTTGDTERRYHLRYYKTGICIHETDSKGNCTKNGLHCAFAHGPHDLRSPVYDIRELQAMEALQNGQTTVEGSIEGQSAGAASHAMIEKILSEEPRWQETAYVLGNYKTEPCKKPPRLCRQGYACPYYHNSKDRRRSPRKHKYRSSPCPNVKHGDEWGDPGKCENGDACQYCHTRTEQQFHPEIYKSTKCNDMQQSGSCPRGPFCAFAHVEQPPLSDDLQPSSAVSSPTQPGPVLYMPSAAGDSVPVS
Notes: RNA with constant flanks, human and mouse sites, ends assumed
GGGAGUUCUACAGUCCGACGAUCCUCAAUGUUAAGCCAUUGGCACGAAUUGCAGCAUUUGCUGAUGCUGCCGUAGACCCCAUUGAUUUUCCACUUGCGCCUGCAUAUGCCGUACCUAAGGUUCUUAAAUAUGCAGGACUGAAACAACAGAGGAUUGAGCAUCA: 0.141 ratio
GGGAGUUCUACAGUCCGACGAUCUCAGAGUGGGGUUUUUCUCAAUUUCCUUGGAACUGAUUAAAAAGAAAUACAACAUCAUCAAUAGAUUACAUUAUUCCCUGUGCGGGAUCCAGUUCAAUACGAUGCAUGAGACAUGCUGCACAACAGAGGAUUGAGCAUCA: 0.778 ratio
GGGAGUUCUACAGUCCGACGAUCGCCUGGGAGAUUAACAGGAAACUUCCAAGAUGGAAACUUUGUCUUUCCCCAGAUAUAAUGUAGCUGAGAUUGUGAUUCAUAUUCGCAAUAAGAUCUUAACAGGAGCUGAUGGUAAAAACCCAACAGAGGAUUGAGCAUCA: 0.558 ratio
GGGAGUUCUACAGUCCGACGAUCGCUGGUCAUAGAAUAGGUGAAUACCUUGAGAAGAUAAUUCCUUUGGUGGUAAAAUUUUGCAAUGUAGAUGAUGAUGAAUUAAGAGAGUACUGUAUUCAAGCCUUUGAAUCAUUUGUAAGACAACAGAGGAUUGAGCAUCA: 3 ratio
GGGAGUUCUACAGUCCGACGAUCAAGGAGGCUGAGAAAGUGGCCCGGGUGAAGGCGCUAUAUGAGGAGCUGGAUCUGCCAGCAGUGUUCUUGCAAUAUGAGGAAGACAGUUACAGCCACAUUAUGGCUCUCAUUGAACAGUACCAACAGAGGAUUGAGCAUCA: 0.131 ratio
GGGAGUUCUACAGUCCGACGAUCAAGGCCUCCUCCUCGUCGGCCUCUUCGGCAGGGGCUCUGGAGUCCUCGUUGGAUCGAAAAUUCCAGUCGGUAACCAACACCAUGGAGUCCAUUCAAGGCUUGUCGUCUUGGUGUAUAGAGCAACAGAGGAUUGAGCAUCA: 0.135 ratio
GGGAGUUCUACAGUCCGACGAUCGGAACUGAUAUAUUGACAGUUCUCACCGAAGUCCUUUUAUAAAGAAUUGCUACUCCAAUAUAUGGUCAGAUUAGAUGCAAGAAUAAAGCAGUUGUCCGAGUCUAAGUUUCUAUUUUAUUACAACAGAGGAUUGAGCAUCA: 0.843 ratio

Series 5 — target: CCND2, cyclin fold, Cln2 fusion (human); method: yeast growth competition, sequencing; sample: yeast; notes: weak parent motif; relative to: not given; reading: higher = stronger binding; quantity: normalised enrichment score
Parent: BRCA2 docking peptide (human); PSIKRNLLNEFDR
I3V: 0.134
R5V: 0.27
R5C: 0.0797
L7P: -0.0854
P1Y: 0.882
F11M: 0.251
E10K: 0.0203
E10T: -0.605
R5K F11L: -0.214
E10D: 0.349
K4A: 0.0525
F11Q: 0.0988
P1G: 0.0702
R5A: -0.208
L8A: 0.223
R13N: 0.148

Series 6 — target: MAFF, bZIP domain (human); method: DHFR protein complementation; sample: yeast; relative to: wild-type JUN-FOS pair; reading: higher = stronger binding; quantity: binding fitness
Notes: single substitutions, most at no-binding floor
Parent: JUN, bZIP domain (human); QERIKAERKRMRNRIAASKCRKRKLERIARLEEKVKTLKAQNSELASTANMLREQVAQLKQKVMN; partner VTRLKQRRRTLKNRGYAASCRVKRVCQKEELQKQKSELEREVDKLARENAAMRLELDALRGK
A57N: -1.42 natural log
T37G: -1.45 natural log
S43G: -1.45 natural log
A57E: -1.29 natural log
A49R: -1.42 natural log
I28D: -1.33 natural log
N42E: -1.43 natural log
Q55C: -1.45 natural log
E32I: -1.52 natural log
S47D: -1.41 natural log
E33H: -1.4 natural log
E32R: -1.35 natural log
E54T: -1.5 natural log
Q55K: -1.5 natural log
A40G: -1.35 natural log
L31P: -1.49 natural log
E54A: -1.45 natural log

Excerpt of the above (series 6):
A40G: -1.35 natural log
L31P: -1.49 natural log
Q55K: -1.5 natural log
Q55C: -1.45 natural log
A57N: -1.42 natural log
A57E: -1.29 natural log
N42E: -1.43 natural log
